Assay results pooled from the literature.
Each line is one published result; not all experiments were run side by side. “And” joins repeats or separate records; there may be more than shown. ± marks the error that the study gave.

The tissue uptake of `CC[C@H](C)[C@H](NC(=O)[C@H](Cc1ccccc1)NC(=O)[C@H](CCC(=O)O)NC(=O)[C@H](CCCNC(=N)N)NC(=O)[C@H](C)NC(=O)[C@H](C)NC(=O)[C@H](CCC(N)=O)NC(=O)[C@H](CCC(=O)O)NC(=O)[C@H](CCC(=O)O)NC(=O)[C@H](CC(C)C)NC(=O)[C@H](Cc1ccc(O)cc1)NC(=O)[C@H](CO)NC(=O)[C@H](CO)NC(=O)[C@@H](NC(=O)[C@H](CC(=O)O)NC(=O)[C@H](CO)NC(=O)[C@@H](NC(=O)[C@H](Cc1ccccc1)NC(=O)[C@@H](NC(=O)CNC(=O)[C@H](CCC(=O)O)NC(=O)[C@H](C)NC(=O)CCc1cnc[nH]1)[C@@H](C)O)[C@@H](C)O)C(C)C)C(=O)N[C@@H](C)C(=O)N[C@@H](Cc1c[nH]c2ccccc12)C(=O)N[C@@H](CC(C)C)C(=O)N[C@H](C(=O)N[C@@H](CCCNC(=N)N)C(=O)NCC(=O)N[C@@H](CCCNC(=N)N)C(=O)N[C@@H](CCCCNC(=O)COCCOCCNC(=O)COCCOCCNC(=O)CC[C@H](NC(=O)CCCCCCCCCCCCCCCCC(=O)O)C(=O)O)C(=O)NCC(=O)NCC(=O)N[C@@H](CO)C(=O)N[C@@H](CCCCNC(=O)[C@H](CCCCNc1c(NCCCCCN(O)C(=O)CCC(=O)NCCCCCN(O)C(=O)CCC(=O)NCCCCCN(O)C(C)=O)c(=O)c1=O)Nc1c(NCCCCCN(O)C(=O)CCC(=O)NCCCCCN(O)C(=O)CCC(=O)NCCCCCN(O)C(C)=O)c(=O)c1=O)C(=O)O)C(C)C` [zirconium-89 labelled] is reported as 0.21 %ID/g and 0.231 %ID/g and 0.186 %ID/g and 0.211 %ID/g and 0.256 %ID/g (ex vivo gamma counting; Sprague-Dawley rat, male, pancreas; intravenous, 1 nmol, 24 h).
`Cc1nc(-c2cnc(NC(C)C)n(C)c2=O)ccc1Oc1ccnc(-c2cnn(C)c2)c1`: “abdominal pain TEAE” 1 patients (humans, solid tumours; oral, dose not given, grade 3/4, all cohorts).
For `C[C@]1(CO)Cc2ncn(-c3ccc(C#N)c(Cl)c3)c2C(=O)O1`, the linearity index was 100% (human, plasma; 40 mg multiple doses; relative to: dose-proportional exposure).
Under “change in Colors score”, `O=C(Nc1ccccc1)C1CCN(C(=O)Oc2cccnc2)CC1` is recorded as 0 (psychotropic effects VAS; healthy women; 60 mg; relative to: pre-dose baseline, direction not given).
With `COc1ncccc1-c1cnn2ccc(N3CCN(C(=O)OC(C)C)CC3)nc12` the drug concentration was 48 µM (mouse, open field test, brain; oral, 30 mg/kg, 60 min).
For `NC(=O)[C@H]1CCN(c2ncnc(N)c2F)C[C@@H]1N1CCC[C@@H](Nc2cc(Cl)cc(C(F)(F)F)c2)C1=O`, “grade ≥3 hyponatraemia” read 0% (B-cell malignancy patients; oral, 20.5 mg twice daily, dose).
`CC(C)[C@@H]1CC[C@@H](C)C[C@@H]1O` gave an aspartate aminotransferase of 53.8 ± 4.59 U/L (acute oral toxicity OECD; Swiss albino mice, serum; oral, 300 mg/kg).
`C=CC(=O)N1CC[C@H](n2nc(C#Cc3cc(OC)cc(OC)c3)c3c(N)ncnc32)C1`: “adverse drug reaction incidence” 16.7% (patients with advanced solid tumours; oral, dose not given, Malaise, any grade, QD, together with: lanthanum carbonate hydrate).
`[O-][S+]1CCc2nc(N3CCC(c4ncc(Cl)cn4)CC3)nc(NC3(CO)CCC3)c21` (stereo not drawn) — result for “adverse event incidence”: 0% (measured: oral hypoaesthesia; healthy male humans; 48 mg single dose).
Under “patients with paronychia”, `C=CC(=O)Nc1cc(Nc2nccc(Nc3cc(Cl)c(F)cc3C(C)(C)O)n2)c(OC)cc1N1CC[C@@H](N(C)C)C1` is recorded as 25% (human patients; oral, 200 mg, treatment-emergent adverse events).
`COc1cc2c(Oc3ccc4[nH]c(C)cc4c3F)ccnc2cc1OCC1(N)CC1` — result for “grade 1 or 2 Epistaxis”: 33.3% (paediatric recurrent refractory sarcoma; 8 mg/kg).
Under “patients with adverse event”, `CN(C)C(=O)c1cc2cnc(Nc3ccc(N4CCNCC4)cn3)nc2n1C1CCCC1` is recorded as 0.9% (measured: Hepatobiliary toxicity, AESI; human, HR+/HER2− advanced breast cancer; oral, dose not given, grade 4, CTCAE v4.03).
With `O=C(O)CCCOc1ccc(F)cc1-c1cc(-c2ccccc2C(F)(F)F)n(-c2ccccc2)n1` the prothrombin time was 9.7 ± 0.3 s (Crl:CD(SD) rat, female; intravenous, 25 µg/kg, 1 days post-dose).
`C[C@]1(O)C[C@@](N)(c2ccc(-c3nc4n(c3-c3ccccc3)COc3ccncc3-4)cc2)C1` — result for “patients with serious AE”: 33.3% (human, advanced or metastatic solid tumours; 28 mg intermittent, phase I dose escalation).
`OC(c1ccc(F)cc1)C(F)(F)CCN1CCC(O)(c2ccc(Cl)cc2)CC1` (racemic): metabolic stability “stable” (human liver microsomes; 5 µM, up to 60 min, together with: with or without NADPH).
Under “median fetal accumulation”, `CCCC1CCC(C2CCC(c3ccc(F)c(F)c3)CC2)CC1` (stereo not drawn) is recorded as 0.133 ng/g (rat, fetus; 10 ng/mL in perfusate, low dose, mixture of 21 LCMs).
For `C[C@@H]1NC(=O)[C@H](CCCCNC(=O)CO/N=C/C(=O)NCCCC[C@@H]2NC(=O)[C@@H](Cc3ccccc3)NC(=O)[C@H](CC(=O)O)NC(=O)CNC(=O)[C@H](CCCNC(=N)N)NC2=O)NC(=O)CNC(=O)[C@@H]2CCCN2C(=O)[C@H](CCCCNC(=O)CO/N=C/C(=O)NCCCC[C@@H]2NC(=O)[C@@H](Cc3ccccc3)NC(=O)[C@H](CC(=O)O)NC(=O)CNC(=O)[C@H](CCCNC(=N)N)NC2=O)NC(=O)[C@H](CCCCNC(=O)CN2CCCNCCNCCCNCC2)NC(=O)[C@H](CCCCNC(=O)CO/N=C/C(=O)NCCCC[C@@H]2NC(=O)[C@@H](Cc3ccccc3)NC(=O)[C@H](CC(=O)O)NC(=O)CNC(=O)[C@H](CCCNC(=N)N)NC2=O)NC(=O)CNC(=O)[C@@H]2CCCN2C(=O)[C@H](CCCCNC(=O)CO/N=C/C(=O)NCCCC[C@@H]2NC(=O)[C@@H](Cc3ccccc3)NC(=O)[C@H](CC(=O)O)NC(=O)CNC(=O)[C@H](CCCNC(=N)N)NC2=O)NC1=O` [copper-64 labelled], the tissue uptake was 2.52 ± 0.41 %ID/g (normal mice, spleen; intravenous, 0.74 MBq, 3 h post-injection).
Under “patients with adverse event”, `C[C@@H]1OC(=O)NN=C1c1ccc(-c2ccc(F)cc2)c(C(F)(F)F)c1` is recorded as 20% (phase I trial, measured: Pneumonitis worst grade 3; human patients; dose not given, all dose groups).
For `COc1ncnn2ccc(-c3cnc4nc(C)n(Cc5nnc([C@@H](C)F)o5)c4c3)c12`, “patients with pyrexia” read 7.1% (human; oral, dose not given, grade 2).
For `N=C(N)NCCNC(=O)C1(Nc2ccccc2)CCN(Cc2ccccc2)CC1`, “elimination rate constant” read 0.000222 ± 2.78e-05 s⁻¹ (male Sprague-Dawley rats; intravenous, 2.5 mg/kg).
For `Oc1c(Cl)cc2c(c1Cl)Oc1cc(Cl)c(Cl)cc1O2`, “dose fraction in milk fat” read 53.1% (whole cow milk; 20 nM nominal).
With `O=S(=O)(Nc1ccccc1)c1ccc(NC(=S)Nc2ccccc2)cc1` the albumin level was 3.25 g/dL (female mouse, blood; oral, 80 mg/kg daily, 14 days).
`Clc1ccc(-c2cc(Cl)c(Cl)cc2Cl)cc1Cl`: “dose fraction in milk fat” 91% (whole cow milk; 200 nM nominal).
`O=C1Nc2cc3[nH]nc(-c4ccncc4)c3cc2CN1Cc1ccccc1` — result for “patients with subretinal fluid”: 0% (CTCAE v4.03; human, relapsed or refractory advanced solid tumours; intravenous, 0.9 mg/kg, pooled schedules).
`CN1CC[C@@H](c2c(O)cc(O)c3c(=O)cc(-c4ccc(C(F)(F)F)cc4Cl)oc23)[C@@H]1CO` — result for “patients with adverse event”: 0% (measured: Hyperglycemia; relapsed B-cell malignancies; oral, 200 mg, grade 3-4, intermittent dosing).
`CO[C@H]1C[C@@H]2CC[C@@H](C)[C@@](O)(O2)C(=O)C(=O)N2CCCC[C@H]2C(=O)O[C@H]([C@H](C)C[C@@H]2CC[C@@H](OC(=O)NCCOCCOCCOCCOCCOCCOCCOCCOCCC(=O)N3CCc4cc(Cn5nc(-c6ccc7oc(N)nc7c6)c6c(N)ncnc65)ccc4C3)[C@H](OC)C2)C[C@@H](O)[C@H](C)/C=C(\C)[C@@H](O)[C@@H](OC)C(=O)[C@H](C)C[C@H](C)/C=C/C=C/C=C/1C`: “dose-reducing adverse events” 0% (phase 1 dose escalation, measured: neutropenia; advanced solid tumour patients; intravenous, 6 mg weekly, any grade).
With `COc1ccc(CCC2CCCC(CCc3ccc(OC)cc3)N2C[C@@H](O)CO)cc1.Cl` (stereo in doubt) the Vmax change was 1.4 ± 3.3% (rabbit Purkinje fibres; 0.3 µM, cycle length 1 s; relative to: baseline).
`CN[C@@H](C)C(=O)N[C@H]1CN(S(=O)(=O)c2cccc(S(=O)(=O)N3CC[C@H]4CC[C@@H](C(=O)NC(c5ccccc5)c5ccccc5)N4C(=O)[C@@H](NC(=O)[C@H](C)NC)C3)c2)CC[C@H]2CC[C@@H](C(=O)NC(c3ccccc3)c3ccccc3)N2C1=O` — result for “treatment-related AST elevation incidence”: 0% (patients with advanced solid tumours; 7 mg, phase I monotherapy).
`[2H]C([2H])([18F])[C@]([2H])(N)C(=O)O` has a tumour-to-muscle ratio of 1.13 ± 0.17 (PET; athymic nude mice, U-87 MG; dose not given, 20 min post-injection; relative to: tumour over muscle).
The remaining peptide of `CC(C)C[C@H](NC(=O)[C@H](CCCCN)NC(=O)OCC1c2ccccc2-c2ccccc21)C(=O)N[C@H](C(=O)N[C@@H](Cc1ccccc1)C(=O)N[C@@H](Cc1ccccc1)C(=O)N[C@@H](CCCCN)C(=O)NCC(=O)N[C@@H](Cc1ccccc1)C(=O)N[C@@H](C)C(=O)N[C@@H](Cc1c[nH]c2ccccc12)C(=O)N[C@@H](CC(N)=O)C(=O)N[C@H](C(=O)N[C@H]1CSSC[C@@H](C(=O)N[C@@H](Cc2c[nH]cn2)C(=O)N[C@@H](CCCNC(=N)N)C(=O)N[C@@H](CCCNC(=N)N)C(=O)N[C@@H](C)C(=O)N[C@@H](CC(N)=O)C(N)=O)NC(=O)[C@H](C(C)C)NC(=O)[C@H](CCCNC(=N)N)NC(=O)[C@H](C(C)C)NC(=O)CNC(=O)[C@H](CC(N)=O)NC(=O)[C@H](CCCNC(=N)N)NC(=O)[C@H](Cc2ccc(O)cc2)NC(=O)[C@H](C(C)C)NC1=O)C(C)C)C(C)C` is reported as 69.2% and 70.1% and 73.7% (HPLC; mouse kidney homogenate; 2560 µM, 4.00 h, 37 °C, 50 mg/mL tissue).
For `CC(C)C(=O)OC[C@H]1O[C@@H](n2ccc(NO)nc2=O)[C@H](O)[C@@H]1O`, the freeze-thaw stability was 101 ± 2.51% (rat maternal placenta dialysate; 5 ng/mL, low concentration, three cycles, together with: NHC 25 ng/mL).
For `CC[C@H](C)[C@@H]1NC(=O)[C@@H]2CCCN2C(=O)[C@H](CC(C)C)NC(=O)[C@H](CC(C)C)NC(=O)CNC(=O)[C@@H](NC(=O)[C@@H](NC(=O)[C@H](CC(=O)O)NC(=O)CNC(=O)[C@@H](NC(=O)[C@H](C)NC(=O)CNC(=O)[C@H](CCCCN)NC(=O)[C@H](CC(C)C)NC(=O)[C@H](CC(C)C)NC(=O)[C@H](CCCCN)NC(=O)CNC(=O)[C@@H](NC(=O)[C@@H](N)CC(C)C)C(C)C)C(C)C)C(C)C)CSSC[C@@H](C(=O)O)NC1=O`, the plasma half-life was 2.79 ± 0.11 h (female C57BL/6 mouse, plasma; intravenous, 10 mg/kg).
With `CC(C)Nc1ccnc(Nc2cccc(-c3cccnc3)c2)n1` the blood chemistry was 229 mg/dL (measured: Glucose; mouse, blood; intraperitoneal, 5 mg/kg).
`CCCCCCCCCCCCCCCC(=O)N[C@@H](CCC(=O)NCCCC[C@H](NC(=O)[C@H](CC(=O)O)NC(=O)[C@H](CO)NC(=O)[C@@H](NC(=O)[C@H](Cc1ccccc1)NC(=O)[C@@H](NC(=O)CNC(=O)[C@H](CCC(N)=O)NC(=O)[C@H](CO)NC(=O)[C@@H](N)Cc1c[nH]cn1)[C@@H](C)O)[C@@H](C)O)C(=O)N[C@@H](CO)C(=O)N[C@@H](CCC(=O)O)C(=O)N[C@@H](Cc1ccc(O)cc1)C(=O)N[C@@H](CC(C)C)C(=O)N[C@@H](CC(=O)O)C(=O)N[C@@H](CO)C(=O)N[C@@H](CCC(=O)O)C(=O)N[C@@H](CCCNC(=N)N)C(=O)N[C@@H](C)C(=O)N[C@@H](CCCNC(=N)N)C(=O)N[C@@H](CC(=O)O)C(=O)N[C@@H](Cc1ccccc1)C(=O)N[C@H](C(=O)N[C@@H](C)C(=O)N[C@@H](Cc1c[nH]c2ccccc12)C(=O)N[C@@H](CC(C)C)C(=O)N[C@@H](CCC(=O)O)C(=O)N[C@@H](C)C(=O)NCC(=O)NCC(=O)O)C(C)C)C(=O)O` has an abdominal distension of 12.5% (human, CrCl ≥ 90 mL/min; sc, 100 µg single dose).
`CCS(=O)(=O)Nc1ccc(Oc2ccc(F)cc2F)c(-c2cn(C)c(=O)c3[nH]ccc23)c1` — result for “treatment-emergent adverse events”: 5% (Staphylococcal bacteremia leading to discontinuation; human, relapsed/refractory AML; oral, dose not given).
For `CCc1ccc(CC/C=C/c2ccc3c(c2)C(=O)CC3)cc1`, the prothrombin time was 14.8 s (Sprague-Dawley rat, male, blood; oral, 450 mg/kg/day, 14 days).

For quick reference, copied from above:
`CO[C@H]1C[C@@H]2CC[C@@H](C)[C@@](O)(O2)C(=O)C(=O)N2CCCC[C@H]2C(=O)O[C@H]([C@H](C)C[C@@H]2CC[C@@H](OC(=O)NCCOCCOCCOCCOCCOCCOCCOCCOCCC(=O)N3CCc4cc(Cn5nc(-c6ccc7oc(N)nc7c6)c6c(N)ncnc65)ccc4C3)[C@H](OC)C2)C[C@@H](O)[C@H](C)/C=C(\C)[C@@H](O)[C@@H](OC)C(=O)[C@H](C)C[C@H](C)/C=C/C=C/C=C/1C`: “dose-reducing adverse events” 0% (phase 1 dose escalation, measured: neutropenia; advanced solid tumour patients; intravenous, 6 mg weekly, any grade).
With `COc1ccc(CCC2CCCC(CCc3ccc(OC)cc3)N2C[C@@H](O)CO)cc1.Cl` (stereo in doubt) the Vmax change was 1.4 ± 3.3% (rabbit Purkinje fibres; 0.3 µM, cycle length 1 s; relative to: baseline).
